{"data": "Measured values collected from several papers", "note": "Parts stem from different laboratories: compare values within a part only. Substitutions count along the parent as printed."}
{"data": "Set 1", "target": "RING finger protein unkempt homolog, zinc fingers 1-6, SBP tag (UNK, Homo sapiens, UniProt Q9C0B0, residues 30-357)", "method": "RNA Bind-n-Seq", "form": "RNA", "sample": "in vitro", "concentration": "100 nM", "notes": "RNA with constant flanks, vertebrate orthologous sites, ends assumed", "reference": "input RNA pool", "direction": "higher = stronger binding", "UniProt Q9C0B0, sequence (30-357, looked up)": "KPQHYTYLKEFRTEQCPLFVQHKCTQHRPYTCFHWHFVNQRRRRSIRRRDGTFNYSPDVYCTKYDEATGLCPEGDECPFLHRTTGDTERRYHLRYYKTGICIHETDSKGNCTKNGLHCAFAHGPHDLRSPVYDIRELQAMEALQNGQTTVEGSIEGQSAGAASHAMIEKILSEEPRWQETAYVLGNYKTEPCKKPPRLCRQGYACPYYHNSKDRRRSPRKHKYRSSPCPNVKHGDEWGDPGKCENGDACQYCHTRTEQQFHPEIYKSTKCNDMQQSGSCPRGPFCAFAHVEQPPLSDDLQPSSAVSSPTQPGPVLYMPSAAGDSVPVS"}
{"Sequence": "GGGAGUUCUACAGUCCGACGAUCGUGACUUUGGGCGUCCGCUCAACCUCUGUGAGGAGAGUUUUUGGUCUGUGGCCUGGCAGACUUGUUUAGUGCUUUCGGACCCGAGUCCUCCACCGUAAACAUGCUCCGCCAGAUCCUGGGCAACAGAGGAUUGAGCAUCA", "bound/input enrichment": "0.2 ratio"}
{"Sequence": "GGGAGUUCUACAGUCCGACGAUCCCAAGCACUGUAGAGGAAGCUGUGCUCGCCUUAGAGCAUUUUUUUUCUUGCUUUUGGUUUUAGGGGUGGGUGGGUUGUGGCACACACCUCUGAGGCCAGAGCCAUCGGGUUCACCUCGUACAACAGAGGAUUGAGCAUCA", "bound/input enrichment": "0.542 ratio"}
{"Sequence": "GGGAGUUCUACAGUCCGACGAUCUACAGGAGCAGCUGGCCAACAGUGCUCAGCACUCUCUACAGGGUUAUCUGCAUGAUGAGAGUGACGUUUCAUAUCAACAGGACCUGUCCCCGCACACACCCGUACCCUGCAGUCCGGUGGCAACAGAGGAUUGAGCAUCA", "bound/input enrichment": "0.445 ratio"}
{"Sequence": "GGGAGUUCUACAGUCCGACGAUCAUUGGAUGCAGUGUAACACUAUCCAAGGCAGUGACUUCAGCUUUAUAUACAUAUAAAAUAUAGUUUUAAAAUUAUUGACAUUUAUUUAAACUUUUAGAUUGGAUUGUUUGCUAUUGCUCUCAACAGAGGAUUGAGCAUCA", "bound/input enrichment": "1.02 ratio"}
{"Sequence": "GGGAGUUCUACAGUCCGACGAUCCUGAAGCUUUGUGUUUGGCUGCACCUGCAUAAGCUGCUACAAAUAGAAUAAAGAAUUUCAUAGCCUGUAUCUAUCAUUAGAUGCAUGGAAAAUGGGCUUUGCACACAAUGGGUUUGGAGCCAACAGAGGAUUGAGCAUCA", "bound/input enrichment": "1.77 ratio"}
{"Sequence": "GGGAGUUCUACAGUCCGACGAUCAUUUUUUAAAGUUUUUUUAAUUUAAUUUUUUCUUUUGGGGGUAAAGUUUGCUCUACCAAAUAGUGAUCGUAACAAAUUGAUCUGUUUUGGAUGUUGCUAUAGUGACAUGCAGUUAUAUAUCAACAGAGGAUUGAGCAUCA", "bound/input enrichment": "0.714 ratio"}
{"Sequence": "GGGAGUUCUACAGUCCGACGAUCUCAUUGUACUACAAAAACCAUACUAGUUCUACACUAGCCACCGUGAUAACUAGUCUGCAUAGGUUGAGUCCUUUACUUUUUAAAUGAUUGGCUUUGUUUGAUACCUGAAACAAAUCACAACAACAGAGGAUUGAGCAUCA", "bound/input enrichment": "0.702 ratio"}
{"Sequence": "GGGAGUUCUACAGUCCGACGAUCAUCACAGUUGCUUUUUACCACCUCAAUGAGGUAGAGUCUCUCUUGGCAUGUGGUUGUUACAAGAGCCAGUCGUACCUGACAAGUCUCUCCACAUUUCAUUUCUUUCACAUUCUUGGUCUUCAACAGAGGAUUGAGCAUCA", "bound/input enrichment": "0.582 ratio"}
{"Sequence": "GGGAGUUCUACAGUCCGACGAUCGAUAAUCACUCUAAUUGUAACCUGAAGAAAGUGUAACAUUGUGUAGCCUUUUGUAUAAAAUAGACAAAUAGAAAUGGUCCAAUUAGUUUCCUUUUUAAUAUGCUGAAAAUAAGCAGGUGGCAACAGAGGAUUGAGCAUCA", "bound/input enrichment": "1.94 ratio"}
{"Sequence": "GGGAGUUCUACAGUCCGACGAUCGUGACUUUGGAAGUCCGCUCAUCAUCUGUGCAGAGUCUAGCCGGUUCCGGGCCUUGCAGUAUUGUUUUUCUUUGCUGGACCCGAGACCUCUGUUGCAACCAUGCUCCGCCAGAUCGUCGGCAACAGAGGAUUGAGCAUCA", "bound/input enrichment": "0.467 ratio"}
{"Sequence": "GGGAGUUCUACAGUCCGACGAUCAUUGUACUACAAAAAGAUCAUCCUAGUUUUAAGCUAACCACAGUGAUAACUAGUCUGUGCUAGUAGAAUCAUUUGCUAUUACUUUUUAAAUUAUCUGCUUUGUCUGAUACCUGAAACCACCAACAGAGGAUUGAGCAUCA", "bound/input enrichment": "0.827 ratio"}
{"data": "Set 2", "target": "TEF, bZIP domain (human)", "method": "DHFR protein complementation", "sample": "yeast", "notes": "single substitutions, most at no-binding floor", "reference": "wild-type JUN-FOS pair", "direction": "higher = stronger binding", "starting sequence": "JUN, bZIP domain (human); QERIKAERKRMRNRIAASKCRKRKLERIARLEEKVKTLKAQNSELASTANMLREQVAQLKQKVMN; partner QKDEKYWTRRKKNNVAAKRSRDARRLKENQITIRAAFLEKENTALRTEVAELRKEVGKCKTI"}
{"Variant": "R53T", "binding fitness": "-1.51 natural log"}
{"Variant": "E33M", "binding fitness": "-1.46 natural log"}
{"Variant": "V56Q", "binding fitness": "-1.56 natural log"}
{"Variant": "A57E", "binding fitness": "-1.45 natural log"}
{"Variant": "Q41G", "binding fitness": "-1.55 natural log"}
{"Variant": "L38T", "binding fitness": "-1.54 natural log"}
{"Variant": "K34T", "binding fitness": "-1.54 natural log"}
{"Variant": "A46Q", "binding fitness": "-1.52 natural log"}
{"data": "Set 3", "target": "Interferon regulatory factor 5, full length, phosphomimetic (IRF5, Homo sapiens, UniProt Q13568-2, residues 1-514, S451D/S453D/S456D/S462D)", "method": "protein-binding microarray", "form": "double-stranded DNA, one strand shown", "sample": "in vitro", "concentration": "940 nM top", "notes": "60-bp whole probe", "together with": "salmon DNA 0.4 mg/ml", "reference": "random background probes", "direction": "higher = stronger binding", "constant ends, left off below": "GCCTAGCAC … GTCTTGATTCGCTTGACGCTGCTG"}
{"Sequence": "GGGCCCTGCTGGGAAGTCAGGTGCTAG", "fitted relative affinity [z-score]": -0.553}
{"Sequence": "ATAGATATGCCAAATCTGTGTGTGCTA", "fitted relative affinity [z-score]": -0.324}
{"Sequence": "TTAGATCTCAGATTGGATTAGTGCTAG", "fitted relative affinity [z-score]": -0.272}
{"Sequence": "AATTAATAACTCGTAGGATCGTGCTAG", "fitted relative affinity [z-score]": -0.0909}
{"Sequence": "TTAGGTTTCGGGTTTCGGTTTGTGCTA", "fitted relative affinity [z-score]": 11.3}
{"Sequence": "TTAGGTATCGGATTCGGTTAGTGCTAG", "fitted relative affinity [z-score]": 4.88}
{"Sequence": "GACGGTTCCCTTTTCTTGACGTGCTAG", "fitted relative affinity [z-score]": 1.02}
{"Sequence": "GACGGTTCCCTTTTCCTGACGTGCTAG", "fitted relative affinity [z-score]": 0.921}
{"Sequence": "TCAGCTTCTTTTTTATTACTGTGCTAG", "fitted relative affinity [z-score]": 1.4}
{"Sequence": "TTAGGACTGCTTATCCTTTCGTGCTAG", "fitted relative affinity [z-score]": -0.351}
{"data": "Single results of other studies"}
{"Substance": "PhoQ, residues 284 288 289 292 302 303 AGGCYF", "target": "PhoP, residues 12 14 15 18 19 VQALL (Escherichia coli, UniProt P23836)", "assay": "Sort-seq, measured: YFP reporter", "system": "E. coli", "setting": "PhoQ-PhoP variant library, together with: 10 µM Mg2+", "scale": "reference: high Mg2+ state, higher = stronger signaling", "measurement": "fold induction", "result": 10.5}
